{"data": "Results collected from several papers", "cell line": "HEK-293T", "note": "Lines come from different studies, so protocols differ. ± marks the error that the study gave."}
{"SMILES": "O=C(NCCN1CCCC1)c1ccc2cc(C(=O)c3cc(O)c(O)c(O)c3)oc2c1", "assay": "cell growth or viability, ATP luminescence", "setting": "24 h", "quantity": "IC50", "result": "> 64 µg/mL"}
{"SMILES": "CC(=S)NCCCC[C@H](NC(=O)OCc1ccccc1)C(=O)N[C@@H](Cc1c[nH]c2ccccc12)C(=O)NC(C)C", "assay": "cell growth or viability, MTT", "setting": "72 h", "quantity": "EC50", "result": "30.8 to 45.6 µM"}
{"SMILES": "CCCCCCCCCCCCSCC(COCC(O)C[N+](C)(C)C)SCCCCCCCCCCCC (centres unmarked)", "assay": "cell growth or viability, MTT", "setting": "24 h", "quantity": "IC50", "result": "107 µM"}
{"SMILES": "O=S(=O)(c1ccc2c(c1)OCO2)n1cc(CCCCN2CCC(=C(c3ccc(F)c(F)c3)c3ccc(F)c(F)c3)CC2)nn1", "assay": "cell growth or viability, ATP luminescence", "setting": "48 h", "quantity": "IC50", "result": "11.1 µM"}
{"SMILES": "CCCCCCCCCCCCCC(=S)NCCCC[C@H](NS(C)(=O)=O)C(=O)N[C@H](C)C(=O)N[C@@H](CCCNC(=N)N)C(N)=O", "assay": "cell growth or viability, MTT", "setting": "72 h", "quantity": "EC50", "result": "10.3 to 21.3 µM"}
{"SMILES": "O=[N+]([O-])c1ccc(O)c(/C=N/Nc2ccccc2)c1", "assay": "cell growth or viability, MTT", "setting": "24 h", "quantity": "IC50", "result": "16 µM"}
{"SMILES": "COc1ccc(NC(=O)c2cnn(-c3ccc([N+](=O)[O-])cc3)c2C(F)(F)F)cc1OC", "assay": "cell viability, MTS", "setting": "50 µM, 72 h", "quantity": "inhibition", "result": "7.4 ± 0.69%"}
{"SMILES": "Cc1cc(C)nc(SCC(=O)Nc2ncc(Cc3cccc(OCc4cn(-c5ccc(Cl)cc5)nn4)c3)s2)n1", "assay": "cell viability, MTS", "setting": "10 µM", "quantity": "inhibition", "result": "32.1 ± 7.6%"}
{"SMILES": "CCCCCCCCCCCCSCC(COCC(O)C[N+](C)(C)CCN)SCCCCCCCCCCCC (centres unmarked)", "assay": "cell growth or viability, MTT", "setting": "24 h", "quantity": "IC50", "result": "107 µM"}
{"SMILES": "CCCCCCCCCCCCNC(=S)NCCCC[C@H](NC(=O)OCc1ccccc1)C(=O)N[C@H](C)C(=O)N[C@@H](CCCNC(=N)N)C(N)=O", "assay": "cell growth or viability, MTT", "setting": "72 h", "quantity": "EC50", "result": "32.3 to 60.4 µM"}
{"SMILES": "CC(C)(C)c1ccc(NC(=O)c2cnn(-c3ccc([N+](=O)[O-])cc3)c2C(F)(F)F)cc1", "assay": "cell viability, MTS", "setting": "50 µM, 72 h", "quantity": "inhibition", "result": "19.7 ± 2.75%"}
{"SMILES": "CCCCCCCCCCCCCC(=S)NCCCC[C@H](NC(=O)OCc1ccccc1)C(=O)Nc1ccccc1", "assay": "cell growth or viability, MTT", "setting": "72 h", "quantity": "EC50", "result": "12.4 to 35.9 µM"}
{"SMILES": "COCCn1cc(COc2cccc(Cc3cnc(NC(=O)CSc4nc(C)cc(C)n4)s3)c2)nn1", "assay": "cell viability, MTS", "setting": "10 µM", "quantity": "inhibition", "result": "20.8 ± 8.3%"}
{"SMILES": "C=CCOCO[C@H](C(=O)NC[C@@H]1C[C@@H](OC)C(C)(C)[C@@H](C[C@@H](COC)OC)O1)[C@@]1(OC)CC(=C)[C@@H](C)[C@@H](C)O1", "assay": "cell viability, sulforhodamine B", "setting": "48 h, 37 °C, without H2O2", "quantity": "IC50", "result": "4.04 ± 0.212 µM"}
{"note": "Excerpt of the above:"}
{"SMILES": "C=CCOCO[C@H](C(=O)NC[C@@H]1C[C@@H](OC)C(C)(C)[C@@H](C[C@@H](COC)OC)O1)[C@@]1(OC)CC(=C)[C@@H](C)[C@@H](C)O1", "assay": "cell viability, sulforhodamine B", "setting": "48 h, 37 °C, without H2O2", "quantity": "IC50", "result": "4.04 ± 0.212 µM"}
{"SMILES": "CCCCCCCCCCCCCC(=S)NCCCC[C@H](NS(C)(=O)=O)C(=O)N[C@H](C)C(=O)N[C@@H](CCCNC(=N)N)C(N)=O", "assay": "cell growth or viability, MTT", "setting": "72 h", "quantity": "EC50", "result": "10.3 to 21.3 µM"}
